Published values collected from several papers.
Every numbered part comes from another study and shows a few of its results, in no order. Positions count from the first letter of the parent shown.

Series 1
Target: Histone acetyltransferase KAT6A, winged helix 1, GST fusion (KAT6A, Homo sapiens, UniProt Q92794, residues 1-85)
Method: protein binding microarray
Form: double-stranded DNA, one strand shown
Sample: in vitro
Tested at: not given
Notes: 8-mer, flanks averaged, mean of 2 arrays, mostly near background
Relative to: not given
Direction: higher = stronger binding
Construct (chain): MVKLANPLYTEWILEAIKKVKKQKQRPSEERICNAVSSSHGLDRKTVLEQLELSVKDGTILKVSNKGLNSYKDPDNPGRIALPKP
Oligonucleotide | E-score
CTATAACA | -0.0814
AAATGCCG | 0.341
GACAGGCA | -0.161
CTACCTAC | 0.0185
CCGCCGAA | 0.381
ACCAGGCG | -0.069
ACGCGGAG | 0.334
TCGGTTCA | -0.0158
ATAGCTAA | -0.0978
GAAGAGTA | 0.0725
CCCATTGC | -0.0601
ATAGTAGG | -0.0158
CGCGTGCC | 0.351
CCACCAAA | -0.158
ACACAAGG | -0.148
ACAGTGGA | -0.143
GTCGTCGA | 0.0104

Series 2
Target: Interferon regulatory factor 7, full length, phosphomimetic (IRF7, Homo sapiens, UniProt Q92985, residues 1-503, S101K/S471D/S472D/S475D/S476D/S477D/S483D/S484D/S487D)
Method: protein-binding microarray
Form: double-stranded DNA, one strand shown
Sample: in vitro
Tested at: 250 nM
Notes: 60-bp whole probe
With: salmon DNA 0.4 mg/ml
Relative to: random background probes
Direction: higher = stronger binding
Constant ends, left off below: GCCTAGCAC … GTCTTGATTCGCTTGACGCTGCTG
Residues (chain): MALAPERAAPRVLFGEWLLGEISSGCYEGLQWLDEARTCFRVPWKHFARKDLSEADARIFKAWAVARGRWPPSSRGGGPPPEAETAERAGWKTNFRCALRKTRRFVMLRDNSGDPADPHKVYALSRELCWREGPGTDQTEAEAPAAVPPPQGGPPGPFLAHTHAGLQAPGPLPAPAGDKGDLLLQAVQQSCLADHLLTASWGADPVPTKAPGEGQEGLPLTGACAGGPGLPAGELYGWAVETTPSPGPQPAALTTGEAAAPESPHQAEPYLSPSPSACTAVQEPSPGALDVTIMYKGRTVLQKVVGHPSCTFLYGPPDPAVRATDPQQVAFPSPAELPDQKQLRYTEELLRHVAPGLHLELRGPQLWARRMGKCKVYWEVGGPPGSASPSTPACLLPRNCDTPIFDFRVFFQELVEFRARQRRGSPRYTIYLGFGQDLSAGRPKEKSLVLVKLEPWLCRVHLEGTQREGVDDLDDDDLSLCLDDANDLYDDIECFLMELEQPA
Oligonucleotide | log fluorescence [z-score]
TTAGGTTTCCTTTTCCGTTAGTGCTAG | 6.49
TTGGGTATCCTTATCCTTTAGTGCTAG | -0.0976
GACGGTTTTGGGTATCGGGACGTGCTA | 1.15
TTAGATATCAGTCTCGATAAGTGCTAG | 0.346
GACGATATCGGCTTTCGAGACGTGCTA | 0.0516
GACGGACTGGGGTATTGGGACGTGCTA | -0.876
GACGGTCTTCTTCTCCTGACGTGCTAG | 0.265
GACGGTATCGGGACTGGGGTCGTGCTA | -0.302
GTCGGTATCGACTTTCGGGACGTGCTA | 1.59
TCAATTATATATTTATGACTGTGCTAG | 0.575
TACTGTGTGCATCTATCTTAGTGCTAG | -0.322
GAATGTGTCTTAAATAGGAGAGTGCTA | -0.213
TCATCTGTCATGTTTGTCACTGTGCTA | 0.141
CACATCTGCTGTGGGAGCACGTGCTAG | -0.223
ATTTTTTTTTTCATCATTGCGTGCTAG | 0.718
TCAATTTTAACCCTTATACTGTGCTAG | 0.334
GCCGAACTGAGACTGGAGACGTGCTAG | -0.183
AATTTTGTCATCTATAATGGAGTGCTA | 0.465
TCACCTTGGGCTCTAGGACTGTGCTAG | -0.218

Series 3
Target: ABI1, truncated, D143A, DHFR fusion (Arabidopsis thaliana)
Method: DHFR PCA, deep sequencing
Sample: yeast
Notes: methotrexate growth selection, single substitutions
With: (+)-ABA 1.4 µM
Relative to: wild-type fitted maximum
Direction: higher = stronger binding
Starting sequence: PYL1, truncated, DHFR fusion (Arabidopsis thaliana); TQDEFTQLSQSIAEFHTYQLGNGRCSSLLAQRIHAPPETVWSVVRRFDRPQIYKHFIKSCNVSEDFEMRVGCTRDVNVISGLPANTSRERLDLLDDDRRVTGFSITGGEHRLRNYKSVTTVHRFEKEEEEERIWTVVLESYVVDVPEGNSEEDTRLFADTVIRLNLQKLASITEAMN; partner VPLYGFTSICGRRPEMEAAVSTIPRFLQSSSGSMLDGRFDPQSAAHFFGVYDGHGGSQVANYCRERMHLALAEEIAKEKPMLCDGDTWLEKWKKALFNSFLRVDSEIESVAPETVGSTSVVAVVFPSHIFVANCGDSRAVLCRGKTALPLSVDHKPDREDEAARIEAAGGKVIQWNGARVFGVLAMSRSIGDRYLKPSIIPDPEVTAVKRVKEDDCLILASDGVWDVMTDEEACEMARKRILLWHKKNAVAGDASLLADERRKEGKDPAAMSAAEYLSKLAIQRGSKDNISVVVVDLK
Change | relative binding score
L29N | 25.6%
P36H | 57.9%
R90F | 4.77%
F56T | -4.93%
L164R | 57.2%
W134M | 69.7%
R163Q | 43.5%
F5R | 45.5%
G148S | 2.39%
V143E | -5.16%
V44H | -8.16%

Series 4
Target: CCNB3, cyclin fold, Cln2 fusion (human)
Method: yeast growth competition, sequencing
Sample: yeast
Notes: weak parent motif
Relative to: not given
Direction: higher = stronger binding
Starting sequence: RBL1 docking peptide (human); GSAKRRLFGEDPP
Change | normalised enrichment score
GSAKYRLFGEDPP [R5Y] | 0.653
GSAKRRLFGEDPL [P13L] | 0.864
GSRKRRLFGEDPP [A3R] | 0.338
GLAKRRLFGEDPP [S2L] | 0.41
GSAKRRLFGEDPS [P13S] | 0.357
GSAKRRQFGEDPP [L7Q] | 0.18
GSAKRRSFGEDPP [L7S] | 0.208
GSAKRYLFGEDPP [R6Y] | 0.694
GSAKRRLFYEDPP [G9Y] | 0.657
GSAKRRDFGEDPP [L7D] | 0.022
GSAKRRCFGEDPP [L7C] | -0.0572
GSAKRRLFGEMPP [D11M] | 0.56
GSAKRRLFGEGPP [D11G] | 0.548
GSAKRRLLGEDPP [F8L] | 0.0655
GSAKRRTFGEDPP [L7T] | -0.0552
GSAKRRLFGEDCP [P12C] | 0.319
GSAKRRLFGEDPQ [P13Q] | 0.377
GSSKRRLFGEDPP [A3S] | -0.221
GSAKRRVFGEDPP [L7V] | 0.337
GSAKRRKFGEDPP [L7K] | 0.096
LSAKRRLFGEDPP [G1L] | 1.28
GTAKRRLFGEDPP [S2T] | 0.557
GSAKMRLFGEDPP [R5M] | 0.457
GSAKRRLFGEDNP [P12N] | 0.887
GSLKRRLFGEDPP [A3L] | 0.52

Some of these lines once more (series 3):
Change | relative binding score
R163Q | 43.5%
F56T | -4.93%
G148S | 2.39%
P36H | 57.9%
L29N | 25.6%
V44H | -8.16%
V143E | -5.16%
F5R | 45.5%
L164R | 57.2%
W134M | 69.7%
R90F | 4.77%
